Experimental data of several laboratories.
Parts stem from different laboratories: compare values within a part only. Changes are numbered by the printed parent chain.

Set 1
Target: Interferon regulatory factor 5, full length, phosphomimetic (IRF5, Homo sapiens, UniProt Q13568-2, residues 1-514, S451D/S453D/S456D/S462D)
Technique: protein-binding microarray
Molecule type: double-stranded DNA, one strand shown
Sample: in vitro
Tested at: 940 nM top
Notes: 60-bp whole probe
Together with: salmon DNA 0.4 mg/ml
Baseline: random background probes
Reading: higher = stronger binding
All sequences stand within: GCCTAGCAC … GTCTTGATTCGCTTGACGCTGCTG
Under “fitted relative affinity”, `TCATACATTTATATCTTACTGTGCTAG` is recorded as 0.779 z-score.
For `GCCGGACTGGGACTGGGGACGTGCTAG`, “fitted relative affinity” read -0.7 z-score.
`CACGGTTTCGGTTCCGGGACGTGCTAG` — result for “fitted relative affinity”: 13 z-score.
Under “fitted relative affinity”, `TTAGGTCTCCTTTTGCTTTAGTGCTAG` is recorded as 0.723 z-score.
`GTAGGTATCGACTATCGGTTAGTGCTA`: “fitted relative affinity” 5.41 z-score.
For `TCAATATTCACTATAGTACTGTGCTAG`, “fitted relative affinity” read 0.357 z-score.
Under “fitted relative affinity”, `GACGAACTGGGGTATCGCGACGTGCTA` is recorded as -0.0788 z-score.
For `TTAGATTCCGGGTATCGATTAGTGCTA`, “fitted relative affinity” read 3.51 z-score.

Set 2
Target: RING finger protein unkempt homolog, zinc fingers 1-6, GST-SBP tag (UNK, Homo sapiens, UniProt Q9C0B0, residues 30-357)
Chain of UniProt Q9C0B0 (30-357, looked up): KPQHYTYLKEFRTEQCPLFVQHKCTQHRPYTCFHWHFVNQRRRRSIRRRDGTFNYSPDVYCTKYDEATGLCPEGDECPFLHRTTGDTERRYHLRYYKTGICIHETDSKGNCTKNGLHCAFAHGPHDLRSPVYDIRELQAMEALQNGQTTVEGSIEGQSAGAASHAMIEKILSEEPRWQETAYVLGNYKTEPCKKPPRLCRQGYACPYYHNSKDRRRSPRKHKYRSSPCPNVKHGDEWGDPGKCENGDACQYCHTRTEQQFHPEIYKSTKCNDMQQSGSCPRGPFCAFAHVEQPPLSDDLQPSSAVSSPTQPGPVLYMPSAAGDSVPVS
Technique: RNA Bind-n-Seq
Molecule type: RNA
Sample: in vitro
Tested at: not given
Notes: RNA with constant flanks, human and mouse sites, ends assumed
Baseline: input RNA pool
Reading: higher = stronger binding
All sequences stand within: GGGAGUUCUACAGUCCGACGAUC … CAACAGAGGAUUGAGCAUCA
With `GGUUUAGGGUAGGGGUUAAUCUGUUGGGGGUUGAUGUGUUUAGCAAGAAGCUACUCCUAGCUUUUGCUAAAAUAUGGUUGGCACUGCCUCUUGUGGCACAGGCCAUAAUUGUUCCAUAGA` the bound/input enrichment was 1.21 ratio.
With `CCCGUCUUGGCUUAUCCACUUUGACUCCUUUGAGCCGUUUGGAGGGGCGGUUUCUGGUAGUUGUGGCUUUUAUGCUUUCAAAGAAUUUCUUCAGUCCAGAGAAUUCCUCCUGGCAGCCCU` the bound/input enrichment was 0.183 ratio.
With `AAAGAGAAAAAUCUGGAGCAGUAUAAUAAACUGGACCAGGAUCUUAAUGAAGUCAAAGCUCGAGUAGAAGAACUGGACAGAAAAUAUUACGAAGUAAAAAAUAAGAAAGAUGAACUACAA` the bound/input enrichment was 0.41 ratio.
`AUCCCAGAGAACGCCAUAUUCGGUCCCUGUGUACUGAGCCAUACUUCCCUGUAUGACAGCAUAGCCUUCGUAGCCCUCAAGUCCACGGACAAGAGAACAGUACCUUACAUCUUCCGGGUA` gave a bound/input enrichment of 0.272 ratio.
For `UGUGGAAGUGCCCCGUGUUUGCUAUGCCGAUGCUGUCCUAGUGGAAACAACUCCACUGUAACUAGAUUGAUCUAUGCACUUUUCUUGCUUGUUGGAGUAUGUGUAGCUUGUGUAAUGUUG`, the bound/input enrichment was 0.246 ratio.
For `CUGGUUGUGGUGGCGCACGCCAGUAGGAUUUGCUGAAGGAGGCAGAAGCAGGAGGAUCGCGAGUUCGAGGCCAGCCUGGUCUACACAUUUUAAACCCGGGCGUGGUGGCGCACGCCUAUA`, the bound/input enrichment was 0.275 ratio.
For `CUUUCCACCAGAAAGCUAUCUCUGGGCUAUAUUUCUUUCUACCUUUUUAGAAAUCAGUCCUUUUGUUAAGUUGUUUAUAACUCCAAUAGAAAAAUAAGGCAUGGUCGGUGGGUAGGGAUG`, the bound/input enrichment was 3.98 ratio.
The bound/input enrichment of `CUCCAAGAAAAACAGCAACAACUUCUUAAUGUACAAGAAGAGAUGAGUGAGAUGCAGAAAAAGAUUAAUGAAAUAGAGAAUUUAAAGAAUGAAUUAAAGAACAAAGAAUUGACAUUGGAA` is reported as 7.8 ratio.

Set 3
Target: CCNF, cyclin fold, Cln2 fusion (human)
Technique: yeast growth competition, sequencing
Sample: yeast
Notes: strong parent motif
Baseline: not given
Reading: higher = stronger binding
Starting sequence: RBL2 docking peptide (human); STTRRRLFVENDS; partner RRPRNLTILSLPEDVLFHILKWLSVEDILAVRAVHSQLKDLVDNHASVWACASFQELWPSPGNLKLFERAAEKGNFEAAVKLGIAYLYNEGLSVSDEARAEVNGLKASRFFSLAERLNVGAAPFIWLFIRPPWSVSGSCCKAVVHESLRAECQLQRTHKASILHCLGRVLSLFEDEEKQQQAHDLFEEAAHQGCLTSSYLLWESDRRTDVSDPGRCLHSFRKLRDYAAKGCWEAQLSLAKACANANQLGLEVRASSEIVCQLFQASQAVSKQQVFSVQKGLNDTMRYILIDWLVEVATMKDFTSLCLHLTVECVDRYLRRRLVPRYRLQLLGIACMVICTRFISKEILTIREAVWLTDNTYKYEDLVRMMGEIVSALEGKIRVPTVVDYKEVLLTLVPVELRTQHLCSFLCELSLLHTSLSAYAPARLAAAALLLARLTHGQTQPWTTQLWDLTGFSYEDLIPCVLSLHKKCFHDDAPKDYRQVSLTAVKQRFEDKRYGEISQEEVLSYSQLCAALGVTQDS
For `STTDRRLFVENDS [R4D]`, “normalised enrichment score” read -0.221.
For `STLRRRLFVENDS [T3L]`, “normalised enrichment score” read 7.76.
Under “normalised enrichment score”, `STTRRFLFVENDS [R6F]` is recorded as 1.63.
`STIRRRLFVENDS [T3I]`: “normalised enrichment score” 9.42.
Under “normalised enrichment score”, `STTCRRLFVENDS [R4C]` is recorded as 8.34.
For `TTTRRRLFVENDS [S1T]`, “normalised enrichment score” read 7.81.
`STTRRELFVENDS [R6E]` — result for “normalised enrichment score”: 4.86.
`STTRRRLFPENDS [V9P]` — result for “normalised enrichment score”: 7.82.

Further values, each from its own experiment
For `PhoQ, residues 284 288 289 292 302 303 TVTVVA`, the fold induction was 10.5 (PhoP, residues 12 14 15 18 19 SGWQI (Escherichia coli, UniProt P23836); Sort-seq, refers to: YFP reporter; E. coli; PhoQ-PhoP variant library, together with: 10 µM Mg2+; baseline: high Mg2+ state, higher = stronger signaling).

Repeated from above (set 3):
`STIRRRLFVENDS [T3I]`: “normalised enrichment score” 9.42.
For `STLRRRLFVENDS [T3L]`, “normalised enrichment score” read 7.76.
